Measured values of several laboratories.
Target: Prostaglandin G/H synthase 2 (PTGS2, Homo sapiens, UniProt P35354)
UniProt P35354, sequence (whole entry, looked up): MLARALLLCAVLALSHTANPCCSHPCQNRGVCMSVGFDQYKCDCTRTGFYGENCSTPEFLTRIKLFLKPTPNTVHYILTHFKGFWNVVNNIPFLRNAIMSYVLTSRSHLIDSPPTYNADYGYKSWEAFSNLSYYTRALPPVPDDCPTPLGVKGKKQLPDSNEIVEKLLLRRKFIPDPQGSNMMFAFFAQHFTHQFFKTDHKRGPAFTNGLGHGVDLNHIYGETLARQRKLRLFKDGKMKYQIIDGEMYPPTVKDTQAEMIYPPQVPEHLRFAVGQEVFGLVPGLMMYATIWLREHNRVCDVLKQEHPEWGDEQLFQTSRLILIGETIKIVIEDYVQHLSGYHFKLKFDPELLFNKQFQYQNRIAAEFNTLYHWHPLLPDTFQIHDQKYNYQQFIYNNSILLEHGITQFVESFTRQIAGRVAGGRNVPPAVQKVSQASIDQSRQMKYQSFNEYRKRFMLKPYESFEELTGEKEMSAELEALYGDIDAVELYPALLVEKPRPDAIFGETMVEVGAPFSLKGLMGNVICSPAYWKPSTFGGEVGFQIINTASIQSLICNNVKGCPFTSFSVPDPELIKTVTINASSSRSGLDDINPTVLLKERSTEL
Mode: inhibitor

| SMILES | assay | IC50 [µM] |
| --- | --- | --- |
| O=C(c1ccncc1)N1N=C2/C(=C/c3ccc(Br)cc3)CCCC2C1c1ccc(Br)cc1 (stereo not drawn) | enzyme activity | 0.102 |
| NS(=O)(=O)c1ccc(-n2cc(CNc3ccc(F)cc3)c(-c3ccc(OCc4ccccc4)cc3)n2)cc1 | enzyme activity, absorbance | 2.87 |
| CN(C(=O)c1ccn2ncc(-c3ccc(C(N)=O)cc3)c2c1)c1ccc(C#N)cn1 | cell-free assay | > 30 |
| Clc1ccc(/N=c2\oc3ccccc3cc2-c2ccccc2)cc1 | enzyme activity | 0.0085 |
| COc1cc(C2OC(c3ccc(O)c(OC)c3)C(C)C2C)ccc1O (stereo not drawn) | enzyme activity, fluorescence | 157 |
| Brc1ccc(/N=c2\oc3ccccc3cc2-c2ccccc2)cc1 | enzyme activity | 0.0124 |
| NS(=O)(=O)c1ccc(-n2cc(CNc3ccccc3)c(-c3ccc(OCc4ccccc4)cc3)n2)cc1 | enzyme activity, absorbance | 3.04 |
| Fc1cc(Cl)c(Nc2ccccc2Cc2nnn[nH]2)c(Cl)c1 | enzyme activity, fluorescence | > 100 |
| COc1cc2c(=O)oc3c(OC)c(O)cc4c(=O)oc(c1OC)c2c34 | enzyme activity, fluorescence | 13.9 |
| COc1cccc(/N=c2\oc3ccccc3cc2-c2ccccc2)c1 | enzyme activity | 0.0087 |
| Clc1ccc(NCc2cn(-c3ccccc3)nc2-c2ccc(OCc3ccccc3)cc2)cc1 | enzyme activity, absorbance | 4.31 |
| O=C(O)C(F)(F)c1ccccc1Nc1c(Cl)cccc1Cl | enzyme activity, fluorescence | 23 |
| FC(F)(F)c1ccc(/N=c2\oc3ccccc3cc2-c2ccccc2)cc1 | enzyme activity | 0.0087 |
| Clc1cnccn1 | enzyme activity, fluorescence | 178 |
| Fc1ccccc1NCc1cn(-c2ccccc2)nc1-c1ccc(OCc2ccccc2)cc1 | enzyme activity, absorbance | 9.45 |

Repeated from above:
| SMILES | assay | IC50 [µM] |
| --- | --- | --- |
| COc1cccc(/N=c2\oc3ccccc3cc2-c2ccccc2)c1 | enzyme activity | 0.0087 |
| CN(C(=O)c1ccn2ncc(-c3ccc(C(N)=O)cc3)c2c1)c1ccc(C#N)cn1 | cell-free assay | > 30 |
